Assay results pooled from the literature.

CN[C@@H](C)C(=O)N[C@H]1CN(S(=O)(=O)c2cccc(S(=O)(=O)N3CC[C@H]4CC[C@@H](C(=O)NC(c5ccccc5)c5ccccc5)N4C(=O)[C@@H](NC(=O)[C@H](C)NC)C3)c2)CC[C@H]2CC[C@@H](C(=O)NC(c3ccccc3)c3ccccc3)N2C1=O: “median overall survival” 6.44 months (RECIST 1.1; advanced pancreatic cancer patients; dose not given, efficacy-evaluable, with: AG).
Cc1cccc(-c2[nH]c(CNc3ccccc3F)nc2-c2ccc3ncnn3c2)n1: “median time to first response” 1 to 2 months (relapsed refractory multiple myeloma patients; oral, dose not given, with: pomalidomide).
For N#CC[C@H](C1CCCC1)n1cc(-c2ncnc3[nH]ccc23)cn1, the median inhibition was 59.2% (phosphoflow cytometry, refers to: pS6; patients, patient plasma; dose not given, C1D15 steady-state trough).
Under “median clinical benefit duration”, Nc1nc2cc(-c3ccc4ncc(C(=O)N5CCOCC5)n4c3)ccc2o1 is recorded as 4.8 months (RECIST v1.1; advanced solid tumour patients; dose not given, Mon-Wed-Fri dosing).
Cc1cc(Nc2ncc(Cl)c(Nc3ccccc3S(=O)(=O)C(C)C)n2)c(OC(C)C)cc1C1CCNCC1: “median progression-free survival” 3.4 months (patients with advanced solid tumours; dose not given, with: gemcitabine).
The median PFS2 of CN(C)C(=O)c1cc2cnc(Nc3ccc(N4CCNCC4)cn3)nc2n1C1CCCC1 is reported as 52.4 months (HR+/HER2− advanced breast cancer patients; dose not given, de novo disease).
For COc1ncnn2ccc(-c3cnc4nc(C)n(Cc5nnc([C@@H](C)F)o5)c4c3)c12, “median overall survival” read 10.4 months (Homo sapiens, relapsed or refractory AML or MDS; dose not given, all patients).
Under “median duration of response”, CCN1CCN(Cc2ccc(Nc3ncc(F)c(-c4cc(F)c5nc6n(c5c4)[C@H](C)CCC6)n3)nc2)CC1 is recorded as 3.7 months (Phase Ia, RECIST v1.1; patients with advanced solid tumours; dose not given, monotherapy, all doses).
CC(C)n1c(C2CCNCC2)nc2c([N+](=O)[O-])c(Br)c(Br)cc21: “median blast change” -13% (patients with AML, bone marrow; all dose levels; baseline: baseline).
Under “median duration of response”, C=CC(=O)Nc1cc(Nc2ncc(C(=O)OC(C)C)c(-c3cn(C)c4ccccc34)n2)c(OC)cc1N(C)CCN(C)C is recorded as 17.5 months (BICR; EGFR-mutant NSCLC patients; dose not given).
Under “median duration of partial response”, COCCOc1cnc2ccn([C@H](C)c3nnc4c(F)cc(-c5cnn(C)c5)cn34)c(=O)c2c1 is recorded as 91 days (MET-amplified advanced solid tumour patients; dose not given).

Some of these lines once more:
Under “median duration of response”, CCN1CCN(Cc2ccc(Nc3ncc(F)c(-c4cc(F)c5nc6n(c5c4)[C@H](C)CCC6)n3)nc2)CC1 is recorded as 3.7 months (Phase Ia, RECIST v1.1; patients with advanced solid tumours; dose not given, monotherapy, all doses).
